# Results collected from several papers.
# Parts stem from different laboratories: compare values within a part only. Changes are numbered by the printed parent chain.

# Study 1
# Target: Interferon regulatory factor 7, full length, phosphomimetic (IRF7, Homo sapiens, UniProt Q92985, residues 1-503, S101K/S471D/S472D/S475D/S476D/S477D/S483D/S484D/S487D)
# UniProt Q92985, sequence (whole entry, unmodified, looked up): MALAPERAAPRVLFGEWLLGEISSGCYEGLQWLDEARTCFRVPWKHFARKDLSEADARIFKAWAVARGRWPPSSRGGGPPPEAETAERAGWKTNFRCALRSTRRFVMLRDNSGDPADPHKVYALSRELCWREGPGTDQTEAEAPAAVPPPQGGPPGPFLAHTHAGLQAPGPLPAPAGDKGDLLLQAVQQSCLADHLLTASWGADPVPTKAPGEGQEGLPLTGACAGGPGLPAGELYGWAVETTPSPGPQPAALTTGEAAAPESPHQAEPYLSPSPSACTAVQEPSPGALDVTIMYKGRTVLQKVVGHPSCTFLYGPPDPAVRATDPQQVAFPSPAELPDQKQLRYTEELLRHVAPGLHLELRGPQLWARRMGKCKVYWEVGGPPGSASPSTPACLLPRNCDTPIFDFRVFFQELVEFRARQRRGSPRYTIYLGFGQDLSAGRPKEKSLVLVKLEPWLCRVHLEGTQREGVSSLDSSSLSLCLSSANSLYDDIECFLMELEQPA
# Technique: protein-binding microarray
# Form: double-stranded DNA, one strand shown
# Sample: in vitro
# Tested at: 250 nM
# Setting: 60-bp whole probe
# With: salmon DNA 0.4 mg/ml
# Reference: random background probes
# Direction: higher = stronger binding
# All sequences stand within: GCCTAGCAC … GTCTTGATTCGCTTGACGCTGCTG
Sequence,log fluorescence [z-score]
GACGGACCGGGTTTCGGGACGTGCTAG,2.81
GACGGTTTCGGGAGTGGGGACGTGCTA,2.33
TACGGTATCGACTTTCGGGACGTGCTA,1.32
TCAATTTTCCCCTACTGACTGTGCTAG,1.49
GACGGTTTTCTTTTCCTGACGTGCTAG,3.48
TTAGAACTGAGGCTGGATTAGTGCTAG,-0.81
TTAGGACTGGACTATAGGTTAGTGCTA,-0.349
TTAGGTATAGACTATCGGTTAGTGCTA,-0.344
TCAATATTCTGCTTTGCACTGTGCTAG,0.379
GACGGTCTCTTTATCCTGACGTGCTAG,0.531
TTAAGTCTCCTTATCCTTTAGTGCTAG,0.533
TTAGGTATCCTTCTCGTTTAGTGCTAG,0.997

# Study 2
# Target: CCNF, cyclin fold, Cln2 fusion (human)
# Technique: yeast growth competition, sequencing
# Sample: yeast
# Setting: strong parent motif
# Reference: not given
# Direction: higher = stronger binding
# Parent: CDKN1A docking peptide (human); SKACRRLFGPVDS
Variant,normalised enrichment score
SKACRILFGPVDS [R6I],5.16
SKAGRRLFGPVDS [C4G],2.84
SKACRRLFGDVDS [P10D],7.29
SSACRRLFGPVDS [K2S],7.74
SKACRRLFKPVDS [G9K],6.05
SKACRRLFGPGDS [V11G],7.45
SKACRRLFGQVDS [P10Q],6.42
SKACRRLFGPVHS [D12H],7.43
SGACRRLFGPVDS [K2G],7.55
SKACRRLFGTVDS [P10T],6.94

# Single results of other studies
Substance,tested on,test,system,setting,scale,measurement,value
"KTN1 (Homo sapiens, UniProt Q86UP2)","ARHGAP12 (Homo sapiens, UniProt Q8IWW6)",cross-linking MS,cell fractions,with: DMTMM,,cross-linked residues,K477 to D606
"PhoQ, residues 284 288 289 292 302 303 TVTVVA","PhoP, residues 12 14 15 18 19 LHHSG (Escherichia coli, UniProt P23836)","Sort-seq, refers to: YFP reporter",E. coli,"PhoQ-PhoP variant library, with: 10 µM Mg2+","reference: high Mg2+ state, higher = stronger signaling",fold induction,12.4

# Repeated from above (single results of other studies):
Substance,tested on,test,system,setting,scale,measurement,value
"KTN1 (Homo sapiens, UniProt Q86UP2)","ARHGAP12 (Homo sapiens, UniProt Q8IWW6)",cross-linking MS,cell fractions,with: DMTMM,,cross-linked residues,K477 to D606
"PhoQ, residues 284 288 289 292 302 303 TVTVVA","PhoP, residues 12 14 15 18 19 LHHSG (Escherichia coli, UniProt P23836)","Sort-seq, refers to: YFP reporter",E. coli,"PhoQ-PhoP variant library, with: 10 µM Mg2+","reference: high Mg2+ state, higher = stronger signaling",fold induction,12.4
